Results gathered from unrelated publications.
Lines come from different studies, so protocols differ. ± marks the error that the study gave.
Chain of UniProt P30411 (whole entry, looked up): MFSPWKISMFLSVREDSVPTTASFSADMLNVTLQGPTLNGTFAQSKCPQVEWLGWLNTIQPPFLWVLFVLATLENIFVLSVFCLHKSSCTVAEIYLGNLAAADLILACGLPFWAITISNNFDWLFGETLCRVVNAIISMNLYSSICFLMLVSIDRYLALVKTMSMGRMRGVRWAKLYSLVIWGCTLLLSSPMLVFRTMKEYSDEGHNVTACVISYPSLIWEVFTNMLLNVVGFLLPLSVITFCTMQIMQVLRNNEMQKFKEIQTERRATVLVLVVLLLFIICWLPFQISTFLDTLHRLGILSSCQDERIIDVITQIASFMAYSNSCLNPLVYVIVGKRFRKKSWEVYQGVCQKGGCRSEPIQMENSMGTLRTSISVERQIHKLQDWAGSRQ
Chain of UniProt P06276 (whole entry, looked up): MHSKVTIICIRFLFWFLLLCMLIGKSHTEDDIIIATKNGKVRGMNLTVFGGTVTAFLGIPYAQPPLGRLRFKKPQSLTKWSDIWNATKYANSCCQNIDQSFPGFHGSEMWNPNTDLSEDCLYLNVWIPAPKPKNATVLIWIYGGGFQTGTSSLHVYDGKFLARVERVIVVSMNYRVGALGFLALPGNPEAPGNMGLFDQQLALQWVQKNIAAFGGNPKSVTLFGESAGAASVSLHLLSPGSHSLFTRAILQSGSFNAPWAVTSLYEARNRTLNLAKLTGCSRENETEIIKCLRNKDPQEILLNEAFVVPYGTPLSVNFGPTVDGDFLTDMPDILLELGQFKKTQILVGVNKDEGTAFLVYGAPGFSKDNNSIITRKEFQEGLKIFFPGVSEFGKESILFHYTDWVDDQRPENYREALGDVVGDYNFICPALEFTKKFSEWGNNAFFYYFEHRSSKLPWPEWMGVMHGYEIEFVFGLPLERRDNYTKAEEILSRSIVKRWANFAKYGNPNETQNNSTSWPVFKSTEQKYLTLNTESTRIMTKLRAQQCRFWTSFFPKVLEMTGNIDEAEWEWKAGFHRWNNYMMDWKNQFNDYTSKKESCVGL

The Tmax of `COc1cc2c(cc1OC)CN(CCc1ccc(NC(=O)c3cccc4c(=O)c5cccc(OC)c5[nH]c34)cc1)CC2` is reported as 1 h (CD-1 mouse, male, plasma; intraperitoneal, 1 mg/kg).
For `Cc1ncnc2c1ccn2[C@@H]1C[C@H](Oc2cc(C(F)F)c(F)c3c2CNCC3)[C@@H](O)[C@H]1O`, the Nausea incidence was 11% (patients; dose not given, any grade; baseline: patients).
`CC[C@H](C)[C@H](NC(=O)[C@H](Cc1ccccc1)NC(=O)[C@H](CCC(=O)O)NC(=O)[C@H](CCCNC(=N)N)NC(=O)[C@H](C)NC(=O)[C@H](C)NC(=O)[C@H](CCC(N)=O)NC(=O)[C@H](CCC(=O)O)NC(=O)[C@H](CCC(=O)O)NC(=O)[C@H](CC(C)C)NC(=O)[C@H](Cc1ccc(O)cc1)NC(=O)[C@H](CO)NC(=O)[C@H](CO)NC(=O)[C@@H](NC(=O)[C@H](CC(=O)O)NC(=O)[C@H](CO)NC(=O)[C@@H](NC(=O)[C@H](Cc1ccccc1)NC(=O)[C@@H](NC(=O)CNC(=O)[C@H](CCC(=O)O)NC(=O)[C@H](C)NC(=O)CCc1c[nH]cn1)[C@@H](C)O)[C@@H](C)O)C(C)C)C(=O)N[C@@H](C)C(=O)N[C@@H](Cc1c[nH]c2ccccc12)C(=O)N[C@@H](CC(C)C)C(=O)N[C@H](C(=O)N[C@@H](CCCNC(=N)N)C(=O)NCC(=O)N[C@@H](CCCNC(=N)N)C(=O)N[C@@H](CCCCNC(=O)COCCOCCNC(=O)COCCOCCNC(=O)CC[C@H](NC(=O)CCCCCCCCCCCCCCCCC(=O)O)C(=O)O)C(=O)NCC(=O)NCC(=O)N[C@@H](CO)C(=O)N[C@@H](CCCCNc1c(NCCCCCN(O)C(=O)CCC(=O)NCCCCCN(O)C(=O)CCC(=O)NCCCCCN(O)C(C)=O)c(=O)c1=O)C(=O)O)C(C)C` gave a Vz/F of 0.167 L/kg (UPLC-MS; rat, plasma; subcutaneous, 20 nmol/kg).
For `C[C@]1(CO)Cc2ncn(-c3ccc(C#N)c(Cl)c3)c2C(=O)O1`, “subjects with drug-related TEAEs” read 0% (investigator-assessed; human; 0.7 mg single dose).
For `COc1cc2c(Oc3ccc4[nH]c(C)cc4c3F)ccnc2cc1OCC1(N)CC1`, “grade 3 intestinal obstruction” read 9.1% (paediatric recurrent refractory sarcoma; 12 mg).
Under “literature range factor”, `c1ccc2c(c1)cc1ccc3cccc4ccc2c1c34` is recorded as 11 (PDMS-water partitioning; PAH compilation; baseline: maximum over minimum K).
For `CO[C@H]1C[C@@H]2CC[C@@H](C)[C@@](O)(O2)C(=O)C(=O)N2CCCC[C@H]2C(=O)O[C@H]([C@H](C)C[C@@H]2CC[C@@H](OC(=O)NCCOCCOCCOCCOCCOCCOCCOCCOCCC(=O)N3CCc4cc(Cn5nc(-c6ccc7oc(N)nc7c6)c6c(N)ncnc65)ccc4C3)[C@H](OC)C2)C[C@@H](O)[C@H](C)/C=C(\C)[C@@H](O)[C@@H](OC)C(=O)[C@H](C)C[C@H](C)/C=C/C=C/C=C/1C`, the dyspnoea incidence was 41.7% (patients with advanced solid tumours; intravenous, 6 mg weekly, any grade).
For `CN1CC[C@@H](c2c(O)cc(O)c3c(=O)cc(-c4ccc(C(F)(F)F)cc4Cl)oc23)[C@@H]1CO`, “patients with adverse event” read 0% (measured: Sepsis; B-cell malignancies; oral, 150 mg, intermittent dosing).
`CC(C)CC(=O)OC[C@H]1O[C@@](C#N)(c2ccc3c(N)ncnn23)[C@H](O)[C@@H]1O`: “recovery in faeces” 0.0637% (Sprague-Dawley rat, both sexes, faeces; 80 mg/kg, time not given; baseline: dose).
`O=S(=O)(Nc1ccccc1)c1ccc(NC(=S)Nc2ccccc2)cc1` has a haematocrit of 42% (female mouse, blood; oral, 80 mg/kg daily, 14 days).
`Cc1cc(C)c(CNC(=O)c2cc(Cl)c3c(c2C)O[C@@](C)([C@H]2CC[C@H](N(C)C)CC2)O3)c(=O)[nH]1` has an Infection incidence of 0% (human, relapsed/refractory NHL; concentration not given, treatment-related TEAEs, grade 5).
For `CCN(CCO)CCCC(C)Nc1ccnc2cc(Cl)ccc12` (stereo not shown), “blurred vision patients” read 14% (newly diagnosed glioblastoma patients; oral, 400 mg/dose, grade 1, together with: radiotherapy plus temozolomide).
Under “literature range factor”, `Clc1cc(Cl)c(Cl)c(-c2ccccc2Cl)c1` is recorded as 1.1 (polyethylene-water partitioning; PCB compilation; baseline: maximum over minimum K).
For `CC(CN1c2ccccc2Sc2ccccc21)N(C)C` (stereo not shown), the IC50 was 6.31 µM (Plasmodium falciparum; 7G8).
Under “log retention factor”, `CC(=O)N[C@@H](CC(N)=O)C(=O)N[C@@H](CCCNC(=N)N)C(=O)N[C@@H](CC(C)C)C(=O)N[C@H]1CSSC[C@@H](C(=O)N[C@H](C(N)=O)[C@@H](C)O)NC(=O)[C@H](CCCNC(=N)N)NC(=O)[C@H](Cc2c[nH]cn2)NC(=O)[C@H](Cc2cccc3ccccc23)NC(=O)CNC(=O)[C@H](Cc2c[nH]c3ccccc23)NC(=O)[C@H](CC(=O)O)NC(=O)[C@H](CCC(N)=O)NC(=O)[C@H](Cc2cccc3ccccc23)NC(=O)[C@H](C(C)C)NC1=O` is recorded as 0.863 (isocratic RP-HPLC, C18; 32% acetonitrile, phosphate pH 7.4, 1% TFA; 25 °C).
`CCc1ccc(CC/C=C/c2ccc3c(c2)C(=O)CC3)cc1` has a Mononuclear percentage of 2.43% (Sprague-Dawley rat, male; oral, 30 mg/kg/day, 14 days).
For `Cc1cccc(Cn2nc(C3CC3)c3c(NC(=O)c4cnc5cc(OCCN6CCN(C)CC6)ccn45)cccc32)n1`, “all-cause adverse events” read 42.9% (CTCAE v4.03, measured: blood alkaline phosphatase increased; patients with advanced solid tumours; oral, 400 mg, dose escalation, together with: pembrolizumab 2 mg/kg IV every 3 weeks).
The Anemia incidence of `CCN1[C@@H](C(=O)NC23CCC(C(=O)O)(CC2)CC3)[C@H](c2cccc(Cl)c2F)[C@]2(C(=O)Nc3cc(Cl)ccc32)C12CCCCC2` is reported as 50% (patients with advanced solid tumours; oral, 200 mg).
`O=[N+]([O-])c1cc2c3c(ccc2c2ccccc12)[C@H](O)[C@@H](O)C=C3`: “tumours per rat” 0.08 ± 0.28 (measured: others mammary tumours; female Sprague-Dawley rats; intramammary, 12.3 µmol per rat, up to 32 weeks).
The IC50 of `CCC1=C[C@@H]2CN3CCc4c([nH]c5ccccc45)[C@@](C(=O)OC)(C2)[C@@H]13` is reported as 3.22 ± 1.44 µM (Cholinesterase (BCHE, Homo sapiens, UniProt P06276); inhibitor; with Triton).
`CN[C@H]1CC[C@@H](c2ccc(Cl)c(Cl)c2)c2ccccc21` has an AUC(0-t) of 192 ng·h/mL (CD-1 mouse, male, plasma; intraperitoneal, 3 mg/kg).
The chloride of `Clc1ccc(-c2ccccc2)cc1` is reported as 77 ± 14 mmol/L (Sprague-Dawley rats, female, serum; inhalation, 23 µg/rat, 0 h after exposure).
`O=C(O)[C@H]1O[C@@H](Oc2cc3oc(-c4ccccc4)cc(=O)c3c(O)c2O)[C@H](O)[C@@H](O)[C@@H]1O` gave a Vz/F of 5660 ± 3390 L/kg (Sprague Dawley rat, plasma; oral, 3.34 g lyophilized powder/kg, low dose).
`O=C(Nc1cnccc1Cl)N1CCN(Cc2ccc3c(c2)OC(F)(F)O3)CC1` gave an inhibition of 1% (BDKRB2 (Homo sapiens, UniProt P30411); binding; 50 µM, together with: [3H]bradykinin).
`N[C@@H]1c2ccccc2OC12CCN(c1cnc3c(N4CCCc5ncccc54)n[nH]c3n1)CC2` — result for “decreased appetite TRAE incidence”: 12% (patients advanced metastatic solid tumours; oral, 60 mg once daily, pooled cohort).
`C[C@@H](NC(=O)N1C(=O)[C@H](Cc2ccnc(N)c2)[C@H]1C(=O)O)C1CCCCC1` — result for “incidence of administration site extravasation”: 0% (healthy adult Chinese volunteers; continuous intravenous infusion, 0.3 mg/kg/h, 5-day infusion, CTCAE 5.0 grading).
For `O=C(Nc1ccccc1)C1CCN(C(=O)Oc2cccnc2)CC1`, “adverse event Nasopharyngitis” read 0% (healthy women; oral, 60 mg, 7 days).
With `COC(=O)c1c(-c2cc(OC)c(OC)c(OC)c2)c2ccc(OCc3ccccn3)cc2c(=O)n1-c1ccc(N)cc1` the IC50 was 3.98 µM (Plasmodium falciparum; 3D7).
`O=C(O)CCCOc1ccc(F)cc1-c1cc(-c2ccccc2C(F)(F)F)n(-c2ccccc2)n1` — result for “serum enzyme activity”: 200 ± 47.4 U/L (measured: ALP; Crl:CD(SD) rats, male, serum; iv, 25 µg/kg, 14 days).
`CC(C)[C@@H]1NC(=O)CNC(=O)[C@H](CC(N)=O)NC(=O)[C@H](CCCNC(=N)N)NC(=O)[C@H](Cc2ccc(O)cc2)NC(=O)[C@H](C(C)C)NC(=O)[C@@H](NC(=O)[C@@H](NC(=O)[C@H](CC(N)=O)NC(=O)[C@H](Cc2c[nH]c3ccccc23)NC(=O)[C@H](C)NC(=O)[C@H](Cc2ccccc2)NC(=O)CN)C(C)C)CSSC[C@@H](C(=O)N[C@@H](Cc2c[nH]cn2)C(=O)N[C@@H](CCCNC(=N)N)C(=O)N[C@@H](CCCNC(=N)N)C(=O)N[C@@H](C)C(=O)N[C@@H](CC(N)=O)C(N)=O)NC(=O)[C@H](C(C)C)NC(=O)[C@H](CCCNC(=N)N)NC1=O`: “secondary structure content” 34.3% (circular dichroism, measured: Random-coil; PBS; 80 µM, pH 7.4).
For `C=CC(=O)Nc1cc(Nc2nccc(Nc3cc(Cl)c(F)cc3C(C)(C)O)n2)c(OC)cc1N1CC[C@@H](N(C)C)C1`, “patients with adverse event Fatigue” read 21.6% (human; oral, dose not given, phase I clinical).
`Clc1ccc(Cl)c(-c2ccccc2Cl)c1` — result for “literature range factor”: 2 (PDMS-water partitioning; PCB compilation; baseline: maximum over minimum K).
`COc1ccnc(C(=O)N[C@H]2COC(=O)[C@H](Cc3ccccc3)[C@@H](OC(=O)C(C)C)[C@H](C)OC2=O)c1OCOC(=O)C(C)C`: “storage stability of residues” 9 months (wheat grain; -18 °C).
`O=C1Nc2cc3[nH]nc(-c4ccncc4)c3cc2CN1Cc1ccccc1` — result for “patients with TEAE”: 12% (measured: Constipation; patients with advanced solid tumours; intravenous, dose not given, all schedules).
`CC(C)C[C@@H]1NC(=O)CNC(=O)[C@H](CC(N)=O)NC(=O)[C@H](CCCNC(=N)N)NC(=O)[C@H]([C@@H](C)O)NC(=O)[C@@H]2CSSC[C@@H]3NC(=O)[C@H]([C@@H](C)O)NC(=O)CNC(=O)CNC(=O)[C@H](C(C)C)NC(=O)[C@@H]4CSSC[C@H](NC(=O)[C@H]([C@@H](C)O)NC(=O)[C@H](CSSC[C@H](NC(=O)[C@H](C(C)C)NC(=O)[C@@H]5CCCN5C1=O)C(=O)N[C@@H](CCCCN)C(=O)N[C@@H](CCC(=O)O)C(=O)N[C@@H]([C@@H](C)O)C(=O)N4)NC(=O)CNC(=O)[C@@H]1CCCN1C(=O)[C@H]([C@@H](C)O)NC(=O)[C@H](CC(N)=O)NC3=O)C(=O)N[C@@H](CO)C(=O)N[C@@H](Cc1c[nH]c3ccccc13)C(=O)N1CCC[C@H]1C(=O)N[C@@H](C(C)C)C(=O)N2` has a remaining peptide of 97.2 ± 2.9% (HPLC; water; 180 µM, 14 days, 37 °C, deamidation stability).
`CC(=O)c1c(C)c2cnc(Nc3ccc(C4CCN(CCS(C)(=O)=O)CC4)cn3)nc2n(C2CCCC2)c1=O` — result for “elimination rate constant”: 1.39e-05 s⁻¹ (human, plasma; oral, 25 mg, day 1 single dose).
With `Cc1ccc(-c2ccnc(Nc3ccc(N4CCN(C)CC4)c(C(F)(F)F)c3)n2)cc1` the toxicity was 0% (zebrafish embryos; 50 µM, 5 d).
For `COc1ccc(-c2c(-c3ccc(C#N)c(F)c3)nc(N3CCC(N)CC3)n(C)c2=O)cc1F`, “treatment-related adverse event incidence” read 13% (measured: Leukopenia; neuroendocrine neoplasm patients; oral, 60 mg, any grade, dose expansion).
For `NC(=O)[C@H]1CCN(c2ncnc(N)c2F)C[C@@H]1N1CCC[C@@H](Nc2cc(Cl)cc(C(F)(F)F)c2)C1=O`, “grade ≥3 platelet decrease” read 0% (B-cell malignancy patients; oral, 328 mg twice daily, dose).
For `CC(=O)N(C)[C@H]1CCN(C(=O)c2cnc3c(c2)C[C@](C)(c2ccc(F)cc2)N3)C1`, “subjects with AEs leading to discontinuation” read 12.5% (healthy male humans; oral, dose not given, multiple rising dose, together with: 60 mg midazolam once daily).
`CC(C)[C@H](C(=O)O[C@H](C#N)c1cccc(Oc2ccccc2)c1)c1ccc(Cl)cc1` — result for “enzyme contribution to clearance”: 2.62% (measured: CYP2C19; human, age 1 year).
`COc1nnc2ccc(N3CCC(c4ccc(OCCN5CCN(C)C(=O)[C@H]5C)cc4)CC3)nn12` has an any TEAE of 94.1% (relapsed/refractory solid tumour or lymphoma patients; oral, dose not given).
For `C=C(C)[C@@H]1CCC(C)=C[C@H]1c1c(O)cc(CCCCC)cc1O`, “AEs leading to withdrawal” read 0% (human; 750 mg, trial 17074, together with: rifampicin 600 mg).

Excerpt of the above:
The IC50 of `CCC1=C[C@@H]2CN3CCc4c([nH]c5ccccc45)[C@@](C(=O)OC)(C2)[C@@H]13` is reported as 3.22 ± 1.44 µM (Cholinesterase (BCHE, Homo sapiens, UniProt P06276); inhibitor; with Triton).
`CN[C@H]1CC[C@@H](c2ccc(Cl)c(Cl)c2)c2ccccc21` has an AUC(0-t) of 192 ng·h/mL (CD-1 mouse, male, plasma; intraperitoneal, 3 mg/kg).
The chloride of `Clc1ccc(-c2ccccc2)cc1` is reported as 77 ± 14 mmol/L (Sprague-Dawley rats, female, serum; inhalation, 23 µg/rat, 0 h after exposure).
`O=C(O)[C@H]1O[C@@H](Oc2cc3oc(-c4ccccc4)cc(=O)c3c(O)c2O)[C@H](O)[C@@H](O)[C@@H]1O` gave a Vz/F of 5660 ± 3390 L/kg (Sprague Dawley rat, plasma; oral, 3.34 g lyophilized powder/kg, low dose).
